Measurements from different studies.
Every numbered part comes from another study and shows a few of its results, in no order.

Block 1 — method: RNA Bind-n-Seq; molecule type: RNA; sample: in vitro; tested at: 200 nM; setting: whole 134-nt RNA, ends assumed; together with: 150 mM LiCl; reference: input library; reading: higher = stronger binding; each molecule: 7-deaza-guanosine replaces G
Target: Ras GTPase-activating protein-binding protein 1, full length (G3BP1, Homo sapiens, UniProt Q13283)
Sequence of UniProt Q13283 (whole entry, looked up): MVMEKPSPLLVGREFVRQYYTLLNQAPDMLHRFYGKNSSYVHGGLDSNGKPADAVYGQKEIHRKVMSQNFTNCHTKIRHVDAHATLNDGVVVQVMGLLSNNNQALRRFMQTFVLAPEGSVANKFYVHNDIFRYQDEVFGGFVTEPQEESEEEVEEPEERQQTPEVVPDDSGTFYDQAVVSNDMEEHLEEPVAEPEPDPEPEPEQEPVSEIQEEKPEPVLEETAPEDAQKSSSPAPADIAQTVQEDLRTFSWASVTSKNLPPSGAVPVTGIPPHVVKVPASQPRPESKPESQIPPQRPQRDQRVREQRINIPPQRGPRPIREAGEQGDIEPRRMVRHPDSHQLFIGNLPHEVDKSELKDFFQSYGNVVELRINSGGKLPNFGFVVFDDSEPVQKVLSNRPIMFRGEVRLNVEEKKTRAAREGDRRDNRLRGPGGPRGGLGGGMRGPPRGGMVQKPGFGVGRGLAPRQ
Constant ends, left off below: GGGAGUUCUACAGUCCGACGAUC … UGGAAUUCUCGGGUGUCAAGG
Oligonucleotide | log2 enrichment
UCCUGUGCUACACAUCGUAUGUACCGAAUCGGGAAAAAAGGGAAAAAAGGGAAAAAAGGAAAGUAUUAUGUUACGCCGUUCGGAUCUGCA | 0.0261
AGUGACCAUUUUAGUUAAAUUUUGUUCCUCUUCCCCCUUUUCACUUUCCUGGAAGAUCGAUGUCCCGAUCAGGAAGGUAGAGAGUUUUCC | 0.774
AGUCCUGUGCUACACAUCGUAUGUACCGAAUCGGGUUUUUGGGAAAGGGAAAAAGGGAAAGUAUUAUGUUACGCCGUUCGGAUCUGCACU | -0.896
CCUCAAGUCCUGUGCUACACAUCGUAUGUACCGAAUCGGGCGGGCGGGCGGGGAAAGUAUUAUGUUACGCCGUUCGGAUCUGCACUUCCA | -1.48
GCAGGAAGUAAAAACAAAUGGAAAUGCUUCGGAUAGUGGCAGGGGAAAGGGUUGCUAAGGAAAGGGUGGGAUGGGAGUGGGUAAAGAGUU | 0.038
CUGUGCUACACAUCGUAUGUACCGAAUCGGGGCCCCCCCGGGCCCCCCCGGCCCCCCCGGGAAAGUAUUAUGUUACGCCGUUCGGAUCUG | 0.429
UCCUGUGCUACACAUCGUAUGUACCGAAUCGGGAAAAAAAGGGAAAGGGAAAAAAAGGGAAAGUAUUAUGUUACGCCGUUCGGAUCUGCA | 0.443
UCCUGUGCUACACAUCGUAUGUACCGAAUCGGGGUUUUUGGGGUUUUUUUGGGGAGGGGAAAGUAUUAUGUUACGCCGUUCGGAUCUGCA | 1.03
CCUGUGCUACACAUCGUAUGUACCGAAUCGGUUUUUUUGGGUUUUUUUGGUUUUUUUGGGGAAAGUAUUAUGUUACGCCGUUCGGAUCUG | 0.486
UCCUGUGCUACACAUCGUAUGUACCGAAUCGGGGAGGGGAAAAAGGGGAAAAAAAGGGGAAAGUAUUAUGUUACGCCGUUCGGAUCUGCA | 0.626
UCCUGUGCUACACAUCGUAUGUACCGAAUCGGGAAAAAGGGUUUUUGGGAAAAAAAGGGAAAGUAUUAUGUUACGCCGUUCGGAUCUGCA | -0.259

Block 2 — method: protein-binding microarray; molecule type: double-stranded DNA, one strand shown; sample: in vitro; tested at: not given; reading: higher = stronger binding
Target: Transcription factor Sp1 (SP1, Homo sapiens, UniProt P08047, residues 1-785, full length assumed)
Sequence of UniProt P08047 (whole entry, looked up): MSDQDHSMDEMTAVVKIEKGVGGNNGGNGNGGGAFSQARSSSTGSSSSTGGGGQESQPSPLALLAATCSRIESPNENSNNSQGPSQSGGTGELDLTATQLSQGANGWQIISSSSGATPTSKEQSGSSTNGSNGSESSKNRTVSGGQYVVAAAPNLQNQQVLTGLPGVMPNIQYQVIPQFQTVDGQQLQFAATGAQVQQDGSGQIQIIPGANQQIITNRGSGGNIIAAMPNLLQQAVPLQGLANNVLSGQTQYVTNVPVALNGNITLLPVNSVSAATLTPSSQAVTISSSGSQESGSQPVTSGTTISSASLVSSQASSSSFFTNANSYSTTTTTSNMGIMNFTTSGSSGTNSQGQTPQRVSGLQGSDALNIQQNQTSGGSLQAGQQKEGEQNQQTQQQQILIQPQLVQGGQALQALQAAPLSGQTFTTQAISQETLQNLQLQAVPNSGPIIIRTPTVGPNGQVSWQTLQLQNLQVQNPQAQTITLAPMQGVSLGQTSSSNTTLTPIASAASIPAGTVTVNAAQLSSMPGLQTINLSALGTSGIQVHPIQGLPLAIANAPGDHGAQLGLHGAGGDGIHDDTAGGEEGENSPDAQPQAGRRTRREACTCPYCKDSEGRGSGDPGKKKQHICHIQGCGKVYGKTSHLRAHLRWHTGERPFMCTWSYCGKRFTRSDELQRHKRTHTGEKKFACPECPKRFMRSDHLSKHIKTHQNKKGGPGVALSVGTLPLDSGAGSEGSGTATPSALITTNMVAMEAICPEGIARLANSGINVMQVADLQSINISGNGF
Setting: k-mer, scored over probes, only values ≥0.25
Oligonucleotide | E-score
ATATCACC | 0.256
TATATATA | 0.288
ACACATAA | 0.258
ATGTAGTA | 0.305
AACCCCGC | 0.309
ATTGTACC | 0.26
GGAGGGGA | 0.474
AAAGGGGC | 0.306
AAAGGGGT | 0.258
CCCCACAC | 0.345
CCTACAAC | 0.252
AGGGGTGG | 0.449
ACGTTATG | 0.306
CCCTCCCA | 0.477
ACTCCCCC | 0.277
CTACCCCA | 0.26
AGGTGGGC | 0.306
ATATACAT | 0.259
CCCTCCCC | 0.469
CATTTACC | 0.276

Block 3 — method: universal PBM; molecule type: double-stranded DNA, one strand shown; sample: in vitro; tested at: 600 nM; reading: higher = stronger binding
Target: Sal-like protein 4, full length isoform A (SALL4, Homo sapiens, UniProt Q9UJQ4, residues 1-1053)
Sequence of UniProt Q9UJQ4 (whole entry, looked up): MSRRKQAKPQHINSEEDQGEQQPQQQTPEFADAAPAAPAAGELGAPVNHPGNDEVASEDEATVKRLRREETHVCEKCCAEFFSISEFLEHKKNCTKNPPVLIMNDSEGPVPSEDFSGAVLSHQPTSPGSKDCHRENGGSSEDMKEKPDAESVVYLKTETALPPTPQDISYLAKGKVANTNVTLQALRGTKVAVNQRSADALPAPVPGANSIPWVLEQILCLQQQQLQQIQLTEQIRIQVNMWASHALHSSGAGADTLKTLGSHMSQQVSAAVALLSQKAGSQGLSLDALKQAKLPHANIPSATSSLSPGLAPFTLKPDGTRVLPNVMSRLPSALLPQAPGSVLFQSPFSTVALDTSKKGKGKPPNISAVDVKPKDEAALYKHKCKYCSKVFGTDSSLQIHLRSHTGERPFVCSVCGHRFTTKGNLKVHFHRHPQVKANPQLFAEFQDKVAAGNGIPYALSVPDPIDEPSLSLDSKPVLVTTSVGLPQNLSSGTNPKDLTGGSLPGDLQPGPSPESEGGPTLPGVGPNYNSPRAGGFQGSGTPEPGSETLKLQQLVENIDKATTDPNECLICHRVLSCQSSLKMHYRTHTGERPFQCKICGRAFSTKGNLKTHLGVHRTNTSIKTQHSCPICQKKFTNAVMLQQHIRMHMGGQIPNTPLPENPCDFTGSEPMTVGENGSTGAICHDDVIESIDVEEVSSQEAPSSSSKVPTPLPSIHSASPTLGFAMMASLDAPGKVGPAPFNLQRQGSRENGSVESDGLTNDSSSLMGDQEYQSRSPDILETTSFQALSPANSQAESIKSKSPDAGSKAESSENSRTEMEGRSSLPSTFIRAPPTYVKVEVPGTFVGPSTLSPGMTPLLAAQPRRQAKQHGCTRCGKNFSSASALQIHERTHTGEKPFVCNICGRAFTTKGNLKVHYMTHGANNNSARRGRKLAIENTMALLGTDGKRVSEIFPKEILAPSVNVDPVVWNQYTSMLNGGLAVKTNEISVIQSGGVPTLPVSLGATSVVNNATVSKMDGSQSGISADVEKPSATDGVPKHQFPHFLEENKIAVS
Setting: 8-mer, flanks averaged, mean of replicates
Oligonucleotide | E-score
AGTTTTCC | 0.0341
ATACTTCC | 0.158
CCCGTAAG | -0.155
AAACAAGT | 0.169
GATCGCGA | 0.0282
AGCTTCCG | -0.259
AGGACTAG | -0.0132
CCAATAAG | 0.151
CAGCACGA | -0.182
GATCTCGA | -0.189
CCTGAAGC | -0.251
AGCTTTGA | 0.137
CCCGAGCC | -0.284
AACACCAA | 0.0775
GGAAGGCC | -0.268
ATCGCATC | -0.117
ATTCTTTG | 0.259
ACGAGGTC | -0.0331
CCGGGGTC | -0.395
ACCAGTAC | -0.149
GTCCAAGA | -0.194
CATGCTTA | 0.144
TCCCAGAA | -0.0373

Block 4 — method: aptamer microarray, sandwich; molecule type: DNA with 2'F-ANA; sample: in vitro; tested at: 200 nM; together with: Cy3 exosite-II aptamer, 400 nM; reading: higher = stronger binding; oligonucleotide: GGTTGGTGTGGTTGG
Target: Prothrombin, mature alpha-thrombin (F2, Homo sapiens, UniProt P00734)
Setting: whole 15-mer aptamer, many near background
Modification | mean fluorescence intensity
2'F-ANA at 4 6 13 | 188 a.u.
2'F-ANA at 1 2 3 5 8 9 15 | 69.3 a.u.
2'F-ANA at 1 3 6 7 8 11 12 15 | 446 a.u.
2'F-ANA at 2 3 4 5 7 8 9 10 12 15 | 61.9 a.u.
2'F-ANA at 5 6 8 12 14 15 | 49.2 a.u.
2'F-ANA at 2 5 8 9 10 14 | 172 a.u.
2'F-ANA at 2 3 4 5 9 11 12 13 | 103 a.u.
2'F-ANA at 1 2 3 7 13 14 | 71.8 a.u.
2'F-ANA at 1 2 3 6 7 12 | 415 a.u.
2'F-ANA at 2 5 6 8 14 15 | 53 a.u.
2'F-ANA at 3 5 11 14 15 | 54.5 a.u.
2'F-ANA at 2 9 10 12 13 14 15 | 82.5 a.u.
2'F-ANA at 1 3 12 14 | 136 a.u.
2'F-ANA at 1 4 7 8 13 15 | 115 a.u.
2'F-ANA at 4 6 7 9 12 15 | 420 a.u.
2'F-ANA at 1 3 4 5 6 9 11 12 13 15 | 64.6 a.u.
2'F-ANA at 2 3 4 5 6 8 11 12 | 191 a.u.
2'F-ANA at 2 3 4 5 10 11 12 15 | 56.1 a.u.
2'F-ANA at 3 4 11 12 14 15 | 367 a.u.
2'F-ANA at 1 4 13 | 83.1 a.u.
2'F-ANA at 4 6 10 11 13 | 67.6 a.u.
2'F-ANA at 2 4 6 8 12 14 15 | 135 a.u.

Block 5 — method: RNA Bind-n-Seq; molecule type: RNA; sample: in vitro; tested at: 365 nM; reference: no-protein control; reading: higher = stronger binding
Target: RNA binding protein fox-1 homolog 2, RRM domain, GST-SBP tag (RBFOX2, Homo sapiens, UniProt O43251-10, residues 100-194)
Setting: natural RNA segment, single round, ends assumed
Constant ends, left off below: GGGAGUUCUACAGUCCGACGAUC … UGGAAUUCUCGGGUGCCAA
Construct (chain): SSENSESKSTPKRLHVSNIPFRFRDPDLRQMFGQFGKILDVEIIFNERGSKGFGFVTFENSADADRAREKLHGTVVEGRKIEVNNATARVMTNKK
Oligonucleotide | RBNS enrichment (R)
AAAUUAUGCCACUUUCCUAUAGUUUCUGUGUUCUGUUUAUUGUAUGGUGUAUUCACUCUUGGAAAAUAUGUAAUAGUUGUGUAUCCAGAAUAUGUGUCUUCACCUGAAUA | 0.745
UUAUUGCCUUCUCACCAGCUGCAAAGUGUUUUGUACCAGUGAGUUUUUGCAAUAAUGCAGUAUGGUACAUUUUUCAAAUUUGAAUAAAGAAUACUUGAACUUGUUGUUGA | 0.303
CCAUGAAUGAUUCUAUGAAGCUAUGCAUCUUAGACCUCUUGAGCUGUGAAUUAGCACUAUUUUCUAUAGUUACUUAUUCUCUGGAUCAUUUUAUAAUUUCCAUAUUAAUU | 3.25
GUAUCAGCAUAUCAUUUAGACAUUGUGAAAAUGAAUUCCUAAACAUUUUCAUAAAACCGGUUAAUUUUGUAGUUUUAGCCAAAAAGUGCCCCCUUUUUACAACUGAAUUC | 0.937
CCCUCUGCAGCCCCUGGCUGCCCUGGACUGUGCAGAGAUGCCUGACUCCAGGGAAACCUGAAAGCAAGAAGUUAAUGGACUGUUUAUUGUAACUUGAUCCUCCCGAGCUG | 0.263
GAGAUAAGGAUGAAGGGGGAGGAAAGGGUCCCUGGAGGCCUGUGCAUCUAUGCUCUGUUACAAGUGCCUUAGCAGGAGUCAGCAGCACCCUCCAGGUGCCCCUUGCCACA | 0.633
GAACGCCAACUGGAAAGGUCCCCUUCCCCAGGGGAGCCUGCGAAGGAGAGGUUCUGUAGAAUCCAAGCCCACAUUUCCAAAGUCACCCCCAACGCGUCCUCUCACACCGU | 0.552
UGCUUUACAAGUGACCAGCCAUCUUGCAGGCUUCAUGCUUCUGAGAGCCUUACUUAGAAGAUGCUGCUGGAGUCACAGCUGAGGAGAGGAAUACUAUCAACAUGGACUAU | 0.535
UCUUAAACACUUCCCACUGCCAGAGUGAGAGUGGGAGUCAUGGCCUCCUGAAAACUUGGACUCUGCAUGGUGCCACCACCAACCAUUGAGUAGUCUGAGGUGCUAACAUC | 0.452
UUUCUAAACCAGAGGACAAAAGGGGUUAAUGUUACUUUAAAAUUACAUUCUAUAUAUAUAUAAAUAUAUAUAAAUAUAUAUUAAAAUACCAGUUUUUUUUCUCUGGGUGC | 2.21
GUGGCUUUUUAAUUAACUUGUCUUUCAUUGCACUUCACUCUGCCUGUUUUCAAGGGGAGUAAGAUUGGUAACAUUUGGGGAGACUGUAUCUGUCUACUUAGCGUGGCUGU | 1.2
GUUUGUACGCAGUUCAAUUUCAAAAUUGCUAAAAUGUGUUUGAGCUUUAGACUAUAACAUUUGUUGUAAUAAUUGCUAGGUUGAAGUUCAACAUGUAAAAAAAGGGGGCA | 1.06

Block 6 — method: protein binding microarray; molecule type: double-stranded DNA, one strand shown; sample: in vitro; tested at: not given; reference: not given; reading: higher = stronger binding
Target: Histone acetyltransferase KAT6A, both winged helices, GST fusion (KAT6A, Homo sapiens, UniProt Q92794, residues 1-181)
Setting: 8-mer, flanks averaged, mean of 2 arrays, mostly near background
Construct (chain): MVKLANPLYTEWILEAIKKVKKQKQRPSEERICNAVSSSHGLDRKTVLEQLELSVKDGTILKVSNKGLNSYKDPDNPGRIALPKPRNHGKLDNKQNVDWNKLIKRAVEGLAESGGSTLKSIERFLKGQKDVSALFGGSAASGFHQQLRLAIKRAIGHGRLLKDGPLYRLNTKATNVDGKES
Oligonucleotide | E-score
GTGCGAAA | -0.0362
CGCTTATC | 0.144
ATCTGCAC | -0.0997
CAGTTCAA | -0.00859
GCAGTTTA | -0.0827
ATGCATTA | -0.112
GTATGAAC | 0.0564
CAATTTTA | 0.0238
ACCATGCT | -0.151
CAGACTTC | -0.225
TCGAGAGA | -0.0629
ACATTTCG | -0.0659
CGGGATAG | 0.154
CCGCCTGA | 0.226
CCGGCAGG | 0.17
CGAGACAG | -0.0681
GGGATGGA | -0.146
AGGACACG | 0.0916
ACCGGGGG | 0.112
CTAAGAGC | -0.0365
CAGGGCAG | -0.0946
ATGCCGTC | 0.32
AGCACGTG | -0.0222
GAATTTTA | -0.0379
AGACGGCA | 0.257

Excerpt of the above (block 1):
Oligonucleotide | log2 enrichment
AGUGACCAUUUUAGUUAAAUUUUGUUCCUCUUCCCCCUUUUCACUUUCCUGGAAGAUCGAUGUCCCGAUCAGGAAGGUAGAGAGUUUUCC | 0.774
UCCUGUGCUACACAUCGUAUGUACCGAAUCGGGAAAAAAGGGAAAAAAGGGAAAAAAGGAAAGUAUUAUGUUACGCCGUUCGGAUCUGCA | 0.0261
CCUCAAGUCCUGUGCUACACAUCGUAUGUACCGAAUCGGGCGGGCGGGCGGGGAAAGUAUUAUGUUACGCCGUUCGGAUCUGCACUUCCA | -1.48
CCUGUGCUACACAUCGUAUGUACCGAAUCGGUUUUUUUGGGUUUUUUUGGUUUUUUUGGGGAAAGUAUUAUGUUACGCCGUUCGGAUCUG | 0.486
UCCUGUGCUACACAUCGUAUGUACCGAAUCGGGAAAAAGGGUUUUUGGGAAAAAAAGGGAAAGUAUUAUGUUACGCCGUUCGGAUCUGCA | -0.259
UCCUGUGCUACACAUCGUAUGUACCGAAUCGGGGUUUUUGGGGUUUUUUUGGGGAGGGGAAAGUAUUAUGUUACGCCGUUCGGAUCUGCA | 1.03
GCAGGAAGUAAAAACAAAUGGAAAUGCUUCGGAUAGUGGCAGGGGAAAGGGUUGCUAAGGAAAGGGUGGGAUGGGAGUGGGUAAAGAGUU | 0.038
AGUCCUGUGCUACACAUCGUAUGUACCGAAUCGGGUUUUUGGGAAAGGGAAAAAGGGAAAGUAUUAUGUUACGCCGUUCGGAUCUGCACU | -0.896
UCCUGUGCUACACAUCGUAUGUACCGAAUCGGGGAGGGGAAAAAGGGGAAAAAAAGGGGAAAGUAUUAUGUUACGCCGUUCGGAUCUGCA | 0.626
UCCUGUGCUACACAUCGUAUGUACCGAAUCGGGAAAAAAAGGGAAAGGGAAAAAAAGGGAAAGUAUUAUGUUACGCCGUUCGGAUCUGCA | 0.443
CUGUGCUACACAUCGUAUGUACCGAAUCGGGGCCCCCCCGGGCCCCCCCGGCCCCCCCGGGAAAGUAUUAUGUUACGCCGUUCGGAUCUG | 0.429
